Results pooled from the literature.
Each line is one published result; not all experiments were run side by side. Numbers after ± are the reported error.

| Substance | target or system | assay | system | setting | how to read | measurement | result |
| --- | --- | --- | --- | --- | --- | --- | --- |
| CCCCCCCCCCCCCCCC(=O)Cl | cysteine peptide Ac-RFAACAA-COOH | DPRA RapidFire-MS/MS |  | 24 h, pH 7.5, with: 5.0 µM cysteine peptide |  | peptide depletion | inactive |
| IINFEKE | ERAP1 human L734R | activator | peptide | 100 µM, pH 8.0, 27 °C, with: L-AMC substrate |  | K1/2 of L-AMC | 0.3 ± 0.07 mM |
| CCCCCCCCCCCCOC(=O)c1cc(O)c(O)c(O)c1 | cysteine peptide Ac-RFAACAA-COOH | DPRA RapidFire-MS/MS |  | 24 h, pH 7.5, with: 5.0 µM cysteine peptide |  | peptide depletion | inactive |
| CC[C@H]1OC(=O)[C@H](C)[C@@H](O[C@H]2C[C@@](C)(OC)[C@@H](O)[C@H](C)O2)[C@H](C)[C@@H](O[C@@H]2O[C@H](C)C[C@H](N(C)C)[C@H]2O)[C@](C)(OC)C[C@@H](C)C(=O)[C@H](C)[C@@H](O)[C@]1(C)O | Staphylococcus aureus | checkerboard broth microdilution | ATCC 25923 | with: ranalexin |  | FIC index | 0.25 |
| CC(=O)N[C@@H](CC(N)=O)C(=O)NCC(=O)N[C@@H](CCCCN)C(=O)N[C@@H](C)C(N)=O | Asn-Gly peptide isomerisation to succinimide | 1H NMR time course |  | pH 7.4, 37 °C |  | rate constant k1 | 0.0362 h⁻¹ |
| Cc1c(C)c2c(c(C)c1O)CCC(C)(C(=O)NN=C1C(=O)Nc3cc(Cl)ccc31)O2 (stereo not drawn) |  | seizure protection | male CF-1 mice | intraperitoneal, 0.5 h, with: maximal electroshock |  | minimal effective dose | 100 mg/kg |
| COc1c(Cl)c(C)c(C=O)c(O)c1C/C=C(C)/C=C/[C@@]1(C)[C@H](C)CCC(=O)[C@@H]1C | Wickerhamomyces anomalus | O2 uptake, inhibitor | mitochondria | with: NADH 1 mM |  | IC50 | 9.5 µM |
| O=CCCCC=O | cysteine peptide Ac-RFAACAA-COOH | DPRA RapidFire-MS/MS |  | 24 h, pH 7.5, with: 5.0 µM cysteine peptide |  | maximal peptide depletion | -119% |
| CNCCCN1c2ccccc2CCc2ccccc21 | mouse pheochromocytoma MPC cells |  |  | 1 µM, 30 min preincubation, with: 0.024 MBq/mL [18F]-dopamine, 120 min retention phase | reference: control | [18F]-dopamine retention | 40.1% |
| Cc1c(C)c2c(c(C)c1O)CCC(C)(C(=O)NN=C1C(=O)N(C)c3ccccc31)O2 (stereo not drawn) |  | seizure protection | male CF-1 mice | intraperitoneal, 4 h, with: pentylenetetrazole 60 mg/kg subcutaneous |  | minimal effective dose | 100 mg/kg |
| CCOC(=O)/C=C\C(=O)OCC | cysteine peptide Ac-RFAACAA-COOH | peptide depletion, DPRA RapidFire-MS/MS |  | 24 h, pH 7.5, room temperature, with: 5.0 µM cysteine peptide |  | IC50 | 300 µM |
| COc1ccc2c(c1)c(CC(=O)O)c(C)n2C(=O)c1ccc(Cl)cc1 | human erythrocytes | hypotonicity-induced hemolysis |  | 100 µg/mL, 1 h |  | inhibition | 88% |
| COc1c(C)c(C)c2c(c1C)CCC(C)(C(=O)NN=C1C(=O)Nc3ccccc31)O2 (stereo not drawn) |  | seizure protection | male CF-1 mice | intraperitoneal, 0.5 h, with: maximal electroshock |  | minimal effective dose | 300 mg/kg |
| NC1=NC(=S)NC12CCCCC2 | human erythrocytes | hypotonicity-induced hemolysis |  | 800 µg/mL, 1 h |  | inhibition | 96% |
| COc1c(C)c(C)c2c(c1C)CCC(C)(C(=O)NN=C1C(=O)Nc3cc(Cl)ccc31)O2 (stereo not drawn) |  | seizure protection | male CF-1 mice | intraperitoneal, 0.5 h, with: pentylenetetrazole 60 mg/kg subcutaneous |  | minimal effective dose | 100 mg/kg |
| SIIVFEKL | OT-I CD8+ T cells |  | peptide | concentration not given, primed 5 d, OVA257 100 ng/mL restimulation, with: 20 ng/mL TGF-beta1 from day 2 |  | IL-2+ cells | 50% |
| C[C@H]1c2cccc(O)c2C(=O)C2=C(O)[C@]3(O)C(=O)C(C(N)=O)=C(O)[C@@H](N(C)C)[C@@H]3[C@@H](O)[C@@H]21 | Staphylococcus aureus | checkerboard broth microdilution | methicillin-susceptible isolate 56-96 | with: magainin II |  | FIC index | 0.75 |
| CCCCCC(C=O)=Cc1ccccc1 | cysteine peptide Ac-RFAACAA-COOH | DPRA RapidFire-MS/MS |  | 24 h, pH 7.5, with: 5.0 µM cysteine peptide |  | maximal peptide depletion | -105% |
| SIYNFEKL | OT-I CD8+ T cells |  | peptide | concentration not given, primed 5 d, OVA257 100 ng/mL restimulation, with: 20 ng/mL TGF-beta1 from day 2 |  | TNF-alpha+ cells | 49.7% |
| O=C1CCC(=O)C2(CCCCC2)N1 | human erythrocytes | hypotonicity-induced hemolysis |  | 600 µg/mL, 1 h |  | inhibition | 73.2% |
| Cc1c(C)c2c(c(C)c1OCc1ccccc1)CCC(C)(C(=O)NN=C1C(=O)Nc3ccc(F)cc31)O2 (stereo not drawn) |  | seizure protection | male CF-1 mice | intraperitoneal, 0.5 h, with: pentylenetetrazole 60 mg/kg subcutaneous |  | minimal effective dose | 300 mg/kg |
| CC(C)(N)C(=O)O | Ehrlich ascites cells, mouse | methionine uptake, competitive inhibitor |  | with: Na+ 107 mEq/L |  | Ki | 2000 µM |
| CO/N=C(\C(=O)N[C@@H]1C(=O)N2C(C(=O)O)=C(CSc3nc(=O)c(=O)[nH]n3C)CS[C@H]12)c1csc(N)n1 | Staphylococcus aureus | checkerboard broth microdilution | ATCC 25923 | with: ranalexin |  | FIC index | 0.75 |
| CCCOC(=O)c1ccc(O)cc1 | cysteine peptide Ac-RFAACAA-COOH | peptide depletion, DPRA RapidFire-MS/MS |  | 24 h, pH 7.5, room temperature, with: 5.0 µM cysteine peptide |  | IC50 | inactive |
| IINFEKL | ERAP1 human L734R | activator | peptide | 100 µM, pH 8.0, 27 °C, with: L-AMC substrate |  | K1/2 of L-AMC | 0.33 ± 0.09 mM |
| C[C@@H](O)[C@H]1C(=O)N2C(C(=O)O)=C(S[C@@H]3CN[C@H](C(=O)N(C)C)C3)[C@H](C)[C@H]12 | Staphylococcus aureus | checkerboard broth microdilution | clinical isolate 21-99 | with: magainin II |  | FIC index | 0.187 |
| COc1c(C)c(C)c2c(c1C)CCC(C)(C(=O)NN=C1C(=O)Nc3ccc(F)cc31)O2 (stereo not drawn) |  | seizure protection | male CF-1 mice | intraperitoneal, 0.5 h, with: pentylenetetrazole 60 mg/kg subcutaneous |  | minimal effective dose | 100 mg/kg |
| O=C1OC(=O)c2ccccc21 | cysteine peptide Ac-RFAACAA-COOH | DPRA RapidFire-MS/MS |  | 24 h, pH 7.5, with: 5.0 µM cysteine peptide |  | peptide depletion | inactive |
| Cc1c(C)c2c(c(C)c1OCc1ccccc1)CCC(C)(C(=O)NN=C1C(=O)N(C)c3ccc(Cl)cc31)O2 (stereo not drawn) |  | seizure protection | male CF-1 mice | intraperitoneal, 4 h, with: pentylenetetrazole 60 mg/kg subcutaneous |  | minimal effective dose | 100 mg/kg |
| Nc1cccc(O)c1 | cysteine peptide Ac-RFAACAA-COOH | DPRA RapidFire-MS/MS |  | 24 h, pH 7.5, with: 5.0 µM cysteine peptide |  | maximal peptide depletion | -26.4% |

Some of these lines once more:
| Substance | target or system | assay | system | setting | how to read | measurement | result |
| --- | --- | --- | --- | --- | --- | --- | --- |
| CO/N=C(\C(=O)N[C@@H]1C(=O)N2C(C(=O)O)=C(CSc3nc(=O)c(=O)[nH]n3C)CS[C@H]12)c1csc(N)n1 | Staphylococcus aureus | checkerboard broth microdilution | ATCC 25923 | with: ranalexin |  | FIC index | 0.75 |
| O=CCCCC=O | cysteine peptide Ac-RFAACAA-COOH | DPRA RapidFire-MS/MS |  | 24 h, pH 7.5, with: 5.0 µM cysteine peptide |  | maximal peptide depletion | -119% |
| CCOC(=O)/C=C\C(=O)OCC | cysteine peptide Ac-RFAACAA-COOH | peptide depletion, DPRA RapidFire-MS/MS |  | 24 h, pH 7.5, room temperature, with: 5.0 µM cysteine peptide |  | IC50 | 300 µM |
| CCCCCCCCCCCCOC(=O)c1cc(O)c(O)c(O)c1 | cysteine peptide Ac-RFAACAA-COOH | DPRA RapidFire-MS/MS |  | 24 h, pH 7.5, with: 5.0 µM cysteine peptide |  | peptide depletion | inactive |
| O=C1CCC(=O)C2(CCCCC2)N1 | human erythrocytes | hypotonicity-induced hemolysis |  | 600 µg/mL, 1 h |  | inhibition | 73.2% |
